Measurements of several laboratories.
Values joined by “and” are separate records of one study, mostly repeats; a detail may differ. ± marks the error that the study gave.

Structure (SMILES) = CC(=O)c1cnc(N)nc1N1CC[C@H]1c1nn2ccc(Cl)c2c(=O)n1-c1ccccc1; tested on = PI3Kβ; assay = KiNativ; test system = monkey white blood cell lysate; conditions = 1 µM; endpoint = binding; result = 69.6%
Structure (SMILES) = C=CC(=O)Nc1cccc(Cn2ncc3cnc(Nc4cnn(CCOC)c4)nc32)c1; tested on = MAP3K15 human; assay = binding, KINOMEscan; conditions = 100 nM; how to read = lower = stronger binding; endpoint = percent of control; result = 94%
Structure (SMILES) = OC[C@H]1O[C@@H]2O[C@H]3[C@H](O)[C@@H](O)[C@@H](O[C@H]4[C@H](O)[C@@H](O)[C@@H](O[C@H]5[C@H](O)[C@@H](O)[C@@H](O[C@H]6[C@H](O)[C@@H](O)[C@@H](O[C@H]7[C@H](O)[C@@H](O)[C@@H](O[C@H]1[C@H](O)[C@H]2O)O[C@@H]7CO)O[C@@H]6CO)O[C@@H]5CO)O[C@@H]4CO)O[C@@H]3CO; tested on = LuxR; assay = Escherichia coli sensor; conditions = 200 µM; how to read = higher = stronger induction; endpoint = bioluminescence induction; result = 769 ± 127 RLU
Structure (SMILES) = C=CC(=O)N1[C@H](c2ccc3c(c2)OCO3)c2[nH]c3ccccc3c2C[C@@H]1C(=O)N1CCN(C)CC1; tested on = human cyclin E1 N112C-3xFLAG:CDK2; assay = co-IP with TMT proteomics, measured: TUBB; conditions = concentration not given, P07437; how to read = baseline: wild type DMSO; endpoint = relative co-enrichment; result = 117%
Structure (SMILES) = C[n+]1ccc(/C=N/NC(=O)c2ccc3ccc(C(=O)N/N=C/c4cc[n+](C)c5ccccc45)nc3n2)c2ccccc21; tested on = 22CTA telomeric G4-DNA antiparallel; assay = FRET melting; conditions = 1 µM, K10 buffer, DNA 0.2 µM, with: ds26 10 µM; endpoint = ΔTm; result = 17.4 ± 0.1 °C
Structure (SMILES) = CCN1CCC(CCNCc2cc3ccccc3nc2SCc2ccccc2)CC1; tested on = electron transport chain; assay = proton pumping, ACMA quenching; test system = Pseudomonas aeruginosa inverted membrane vesicles; conditions = 2 µg/mL, with: NADH; endpoint = inhibition; result = 11%
Structure (SMILES) = c1ccc(-c2n[nH]cc2-c2ccnc3ccccc23)nc1; tested on = CKA1 (Candida albicans); assay = kinase binding, MIB/MS competition; test system = Candida albicans lysate; conditions = 1 µM; how to read = baseline: DMSO; endpoint = log2 fold change; result = -0.08
Structure (SMILES) = C[n+]1ccc(/C=N/NC(=O)c2ccc3ccc4ccc(C(=O)N/N=C/c5cc[n+](C)cc5)nc4c3n2)cc1; tested on = 22CTA telomeric G4-DNA antiparallel; assay = FRET melting; conditions = 1 µM, K10 buffer, DNA 0.2 µM; endpoint = ΔTm; result = 17.7 ± 0.8 °C
Structure (SMILES) = COc1ccc(-c2ccc(C3CCCCC3)cc2)cc1OC; assay = hepatocyte stability; test system = cryopreserved rat hepatocytes; conditions = 1 µM; endpoint = hepatic clearance; result = 18 mL/min/kg
Structure (SMILES) = CC(C)Oc1cc(Cl)ccc1CNc1cc(-c2ccccc2)nc2ncnn12; tested on = endogenous β-adrenergic receptors; assay = cAMP level, cAMP GloSensor; test system = mock-transfected cells; conditions = 100 pM, with: isoprenaline 30 nM; how to read = higher = more cAMP; endpoint = cAMP luminescence; result = 23300 a.u. and 28500 a.u. and 24000 a.u.
Structure (SMILES) = Nc1ncc(-c2cc(-c3cnn(CC(F)(F)F)c3)ncc2F)nc1C(=O)NC1CNCC(F)C1 (stereo not drawn); tested on = CDC2L1; assay = KINOMEscan; conditions = 1 µM; how to read = baseline: DMSO control; endpoint = remaining binding; result = 100%
Structure (SMILES) = O=C(N/N=C/c1cc[n+](CC2CC2)c2ccccc12)c1cc(C(=O)N/N=C/c2cc[n+](CC3CC3)c3ccccc23)ncn1; tested on = 22CTA telomeric G4-DNA antiparallel; assay = FRET melting; conditions = 1 µM, K10 buffer, DNA 0.2 µM; endpoint = ΔTm; result = 10.5 ± 1.7 °C
Structure (SMILES) = CN(C)C(=O)CNC(=O)c1ccc(C2CCCCC2)cc1; assay = hepatocyte stability; test system = cryopreserved human hepatocytes; conditions = 1 µM; endpoint = hepatic clearance; result = 17 mL/min/kg
Structure (SMILES) = O=c1c(Oc2ccccc2)c(C(F)(F)F)oc2c(O)c(O)ccc12; tested on = ROC1-CUL1 E3 subcomplex; assay = di-ubiquitin synthesis; conditions = 100 µM; how to read = baseline: input; endpoint = di-ubiquitin formed; result = 28%
Structure (SMILES) = O=C(N/N=C/c1cc[n+](Cc2ccccc2)c2ccccc12)N/N=C/c1cc[n+](Cc2ccccc2)c2ccccc12; tested on = 22CTA telomeric G4-DNA antiparallel; assay = FRET melting; conditions = 1 µM, K10 buffer, DNA 0.2 µM; endpoint = ΔTm; result = 13.1 ± 0.8 °C

Excerpt of the above:
Structure (SMILES) = CN(C)C(=O)CNC(=O)c1ccc(C2CCCCC2)cc1; assay = hepatocyte stability; test system = cryopreserved human hepatocytes; conditions = 1 µM; endpoint = hepatic clearance; result = 17 mL/min/kg
